Results from different studies.
Each numbered part is a random draw from the data of one study; scales do not carry over between parts.

Series 1
Target: Sal-like protein 4, full length isoform B (SALL4, Homo sapiens, UniProt Q9UJQ4-2, residues 1-616)
Method: universal PBM
Molecule type: double-stranded DNA, one strand shown
Medium: in vitro
Tested at: not given
Setting: 8-mer, flanks averaged, mean of replicates
Reading: higher = stronger binding
With `AGCATACA` the E-score was 0.271.
`ATCGGAAG` gave an E-score of 0.106.
`CACGGTCG` has an E-score of -0.358.
`CCTTTCCG` has an E-score of -0.219.
`ACCCACGA` gave an E-score of -0.215.
`ATCAGACA` gave an E-score of 0.00721.
For `GAGCTTAC`, the E-score was -0.0815.
`ATCTGGTC` has an E-score of 0.0299.
The E-score of `AACCTGCC` is reported as -0.127.
`CAGCCGTC` gave an E-score of -0.286.
`GATTATCA` has an E-score of 0.24.
`GATTCGAC` has an E-score of -0.0707.
`CAATCACA` gave an E-score of 0.2.
For `TCTGAAGA`, the E-score was -0.0774.
`AACCGCAC` gave an E-score of -0.244.
With `CACACATG` the E-score was -0.049.
`AATAGAGT` has an E-score of 0.13.
`TGTCAGAA` has an E-score of 0.161.

Series 2
Target: RING finger protein unkempt homolog, zinc fingers 1-6, GST-SBP tag (UNK, Homo sapiens, UniProt Q9C0B0, residues 30-357)
Sequence of UniProt Q9C0B0 (30-357, looked up): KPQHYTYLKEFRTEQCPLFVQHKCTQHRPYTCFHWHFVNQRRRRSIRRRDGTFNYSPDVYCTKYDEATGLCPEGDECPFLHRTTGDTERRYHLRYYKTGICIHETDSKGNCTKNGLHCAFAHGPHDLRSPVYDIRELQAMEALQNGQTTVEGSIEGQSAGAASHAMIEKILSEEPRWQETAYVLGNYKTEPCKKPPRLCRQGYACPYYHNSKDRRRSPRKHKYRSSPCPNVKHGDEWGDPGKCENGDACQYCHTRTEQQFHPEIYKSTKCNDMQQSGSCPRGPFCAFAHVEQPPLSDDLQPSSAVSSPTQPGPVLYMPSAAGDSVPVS
Method: RNA Bind-n-Seq
Molecule type: RNA
Medium: in vitro
Tested at: not given
Setting: RNA with constant flanks, human-mouse chimeric sites, ends assumed
Relative to: input RNA pool
Reading: higher = stronger binding
For `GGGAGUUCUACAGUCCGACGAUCUAAAUUAGCCAGCACCAUUUCUGUUUCUCCCUGGGCUGCGGAAAGCCAGAAGAUUUUAUCUAGCUUAAACCAGGCUGCUGGUGUUCCCUCUUUUUUUCCACGAGGGUGUUUUUGGCUGCACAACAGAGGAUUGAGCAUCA`, the bound/input enrichment was 0.733 ratio.
For `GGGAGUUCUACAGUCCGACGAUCCACGUGUCUGCAGUACUUGAUGUGGACUACUCUCCCACUGGGAAGGAAUUUGUGUCUGCCAGCUUUGAUAAGUCUAUUAGAAUCUUUCCUGUGGACAAAAGUCGAAGCAGGGAAGUGUAUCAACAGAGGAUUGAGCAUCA`, the bound/input enrichment was 0.39 ratio.
For `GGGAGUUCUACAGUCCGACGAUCGAAUCCUACUCAGGCGGAUUUUGCAACACCAAGCUCAAGUAGCAAUUAUCUUAGUCACAGUUAGGUAGUUUUGGGGCUCUGUGGCCAGGGUUUUAUUCACAUGCAGGUUUGGAAAAUGUACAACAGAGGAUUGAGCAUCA`, the bound/input enrichment was 2.08 ratio.
With `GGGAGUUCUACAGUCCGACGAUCUAAAUUAGGGCUGCCGUUUUCUGUUUCUCCCUGGGCUGCGGAAAGCCAGAAGAUUUUAUCUAGCUUAUACAAGGCUGCUGGUGUUCCCUCUUUUUUUCCCUCUCUCUGUUUUUGGCUGCACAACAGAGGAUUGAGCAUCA` the bound/input enrichment was 1.2 ratio.
With `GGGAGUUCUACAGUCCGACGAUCUGGCGCCUGCGCUCCCCGUUUUUAAAUUUAAGUGUAUUUUUAUAAGAUACAUGUAUUUACAAUUGAGCUUUUGUUACUAUAAUACUGAAUGCUACUGGAGAUUAUGAAAAAUGUUUCAAUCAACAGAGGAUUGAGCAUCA` the bound/input enrichment was 0.629 ratio.
The bound/input enrichment of `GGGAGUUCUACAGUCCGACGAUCUUAUCCAAGACUCAACGAAAGACUCCAACCGUUAUUCAUAAACAUUAUCAAAUUCAUCGGAUUCGACAUUUUUACAUGAGAAAAGUCAAAUUUACUCAACAGAAUUACCAUGACAGACUGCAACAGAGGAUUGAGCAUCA` is reported as 0.425 ratio.
With `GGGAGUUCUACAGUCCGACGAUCUGUAGUUUCUUGAUUUAUCAUUUUUCUCUUUUCUUUCAGAUCGUCAGGAAAAGCCUAAAGAUUAGGUUGUAAGAAAAACAGAAGCCAUGUUUCGAAGACCUGUGUUACAGGUAUUUCGUCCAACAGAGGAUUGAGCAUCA` the bound/input enrichment was 0.468 ratio.
`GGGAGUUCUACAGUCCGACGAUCCAGCUGCGAGGCCGCGGUUUCCCCCUGGGCCUCCCCAGCAGCAGCCAUGGGCAUCAAAUUUUUAGAAGUUAUCAAACCAUUCUGUGCAGUUCUACCAGAAAUUCAGAAGCCUGAAAGGAACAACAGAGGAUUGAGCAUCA` gave a bound/input enrichment of 0.548 ratio.
`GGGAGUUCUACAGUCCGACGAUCCAGUCCCCGUGUCCCAGUGCAGGACGAUGUGAACAAAUCGAAGACAUGGACCCUCUAUUGUAGUUCUUGAUUCUCGAAAUGUGCUAUUGUUUUUAAACUUUUUUUUUUUUUUUUUAAAGACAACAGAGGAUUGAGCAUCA` gave a bound/input enrichment of 1.31 ratio.
`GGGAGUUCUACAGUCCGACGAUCGGGGAGAAACCUUAUGAGUGUGUGCAGUGUGGGAAAUCCUACAGUCAGAGCUCAAACCUCUUCAGACAUCAGAGAAGACACAAUGCAGAAAAACUUUUGAAUGUUGUGAAGGUUUAAGAACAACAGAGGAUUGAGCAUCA` gave a bound/input enrichment of 0.221 ratio.
With `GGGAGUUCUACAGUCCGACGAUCUCGGAUGCUGUGCUGGGUCACUUUUCAUAUCCAGAUCCUUCACAGUGGACAGAUGAAGAACUGGGAAUCCCUCCUGAUGAUGAAGACUGACACUGUAAACUCUCUGGCACUCUGUACGCACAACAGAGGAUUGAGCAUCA` the bound/input enrichment was 0.368 ratio.

Series 3
Target: RNA binding protein fox-1 homolog 2, RRM domain, GST-SBP tag (RBFOX2, Homo sapiens, UniProt O43251-10, residues 100-194)
Method: RNA Bind-n-Seq
Molecule type: RNA
Medium: in vitro
Tested at: 365 nM
Setting: natural RNA segment, single round, ends assumed
Relative to: no-protein control
Reading: higher = stronger binding
Residues (chain): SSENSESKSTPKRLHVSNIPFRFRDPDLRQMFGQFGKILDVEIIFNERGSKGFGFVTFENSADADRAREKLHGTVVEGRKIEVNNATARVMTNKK
`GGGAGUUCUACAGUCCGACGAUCUUAAAAAUGGACUUGCAAACUCAUAGUACCUGGCUGCACACGUCCUCGCCUCUGUUUGUCUGGCUCUAGAUACCUAAUUCUCAAUCUUCCUCCGCUCACCCCAUUGCUUGUGGAAUUCUCGGGUGCCAA` — result for “RBNS enrichment (R)”: 2.
For `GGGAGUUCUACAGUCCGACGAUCUGUCACUCCUUUGGUCAUUAAAUGCACUGGGCUUGCCCGCACUUUGGCCUUCCUAGAACACUGCUUCAUAACCUCUCUGUCUGACUUCUGCAUCUCCUUCCAGGUCAGCUUGGAAUUCUCGGGUGCCAA`, “RBNS enrichment (R)” read 1.42.
Under “RBNS enrichment (R)”, `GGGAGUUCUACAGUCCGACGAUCUACAAGUGACUAUAGAAGAAAGAGGCCUGGUCUUGAGCAGAGACUCUUGUUCGCAACUCAGAUCACACUCCAAUUGUGGUGACAGACUCUUCCAUAUCAGGCUGGUUUUGUGGAAUUCUCGGGUGCCAA` is recorded as 0.396.
For `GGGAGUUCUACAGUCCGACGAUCCAGGAGAUGGUUAAUAAGAGUUGUUACUUCGAGGUGCCUACCUCCACCUUCAAAGUAACUCUUAGAAGAUGUGCUUGACUUGAUAGCUUACUUAAAUACACACUGCGAAGUGGAAUUCUCGGGUGCCAA`, “RBNS enrichment (R)” read 0.529.
For `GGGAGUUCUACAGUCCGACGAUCUUUCUGACGGGACGACACAUCUGGGAAGACAGCGGCGAGUUUUCUGAAGAGAUGAGUGCUCAGAGCCCUCAUGCUGUUGAGGCUAAAGGGAGGCCUGGAACGGUGGGGCGUGGAAUUCUCGGGUGCCAA`, “RBNS enrichment (R)” read 0.574.
For `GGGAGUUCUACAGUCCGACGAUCAAUGACACUCAGAGAGGGACAGUGCAGUUUGACAUUCAGAUAACAGCAGCAUUGGCUGCUUUUGUUGGUAGCAUGGAUUCAUGUUUUCUCAGAGGAACUUUUCACUUGAAUGGAAUUCUCGGGUGCCAA`, “RBNS enrichment (R)” read 1.87.
Under “RBNS enrichment (R)”, `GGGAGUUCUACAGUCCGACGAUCGCGCAUCGGGGAGGGGUGCUCUGAAGGCCAGGCACGGCCACCACACGACGCUGUUCUUAGUUCACUAAUGUUAGCCUUAUUUAGGACAAAGUCAGCCAGACACCUUGUACUGGAAUUCUCGGGUGCCAA` is recorded as 0.426.
Under “RBNS enrichment (R)”, `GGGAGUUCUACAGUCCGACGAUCCUACAGGACUCCCGAGUGUGAGCCGCGGUUCCUCUGUUGCAGCGCAGCCGUGUGUGCUGUGGAGCCGAGGCCGUCCUGCAGGAAGCCGCGUGACUCCCGCCUCCUCCCUGUGGAAUUCUCGGGUGCCAA` is recorded as 0.611.
`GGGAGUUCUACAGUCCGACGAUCCCAUGAUGAAUGCCAUCAGUCCCUCCUGCUGUUGCCUCCCUGUGACCUGGAGGACAGUGUGUGCCAUGUCUCCCAUACUAGAGAUAAAUAAAUGUAGCCACAUUUACUGUUGGAAUUCUCGGGUGCCAA` — result for “RBNS enrichment (R)”: 0.427.
Under “RBNS enrichment (R)”, `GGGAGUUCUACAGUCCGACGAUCAGCUUUUGAAAGGCCUCUAACCUAAACUCCCACCCAGCCUGUCAGGCCCGCUUUGAUAUUCAUUCAGUCUGUAGUAGUAACUUCAGAAAGACCUGGAGGACCUUUCCCCUUGGAAUUCUCGGGUGCCAA` is recorded as 0.198.
`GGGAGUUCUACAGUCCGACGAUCUAAUAUGAGAAUCCAGUUCUCAUGACAAGAACCAGUUUAAAAACUGCUCGUUCUUAAAAAGGUAAAACUAAGAUUUAGAAACAAGGCAGGCCUUAGAGCCGAGGGAGACUUGGAAUUCUCGGGUGCCAA`: “RBNS enrichment (R)” 0.326.
Under “RBNS enrichment (R)”, `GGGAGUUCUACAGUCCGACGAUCAUUAUAUUAAUAGUGAGUUUCAGGCCCCUGGGCAUUUUGUACCAUGUAAUUAUCCUCUGGUGAUGCUGUUUCUCGUUAGUGGCAGUAGUGCCUCCGUCUCCUAGUGAUAAUGGAAUUCUCGGGUGCCAA` is recorded as 0.441.

Series 4
Target: Histone acetyltransferase KAT6A, both winged helices, GST fusion (KAT6A, Homo sapiens, UniProt Q92794, residues 1-181)
Method: protein binding microarray
Molecule type: double-stranded DNA, one strand shown
Medium: in vitro
Tested at: not given
Setting: 8-mer, flanks averaged, mean of 2 arrays, mostly near background
Relative to: not given
Reading: higher = stronger binding
Target sequence (chain): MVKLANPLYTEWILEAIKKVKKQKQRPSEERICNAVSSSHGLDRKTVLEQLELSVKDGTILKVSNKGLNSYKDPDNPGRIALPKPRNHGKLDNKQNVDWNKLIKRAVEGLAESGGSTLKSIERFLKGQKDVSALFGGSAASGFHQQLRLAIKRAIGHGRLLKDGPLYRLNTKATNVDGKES
For `CAATCTCG`, the E-score was -0.0985.
`AACGTTTC` has an E-score of -0.0592.
`TTATAAAA` has an E-score of 0.0272.
`ATTACTAG` has an E-score of 0.0529.
For `ATTCTCCA`, the E-score was -0.125.
For `CAGCCTCG`, the E-score was -0.093.
`GGGTTACA` gave an E-score of 0.158.
For `CGTTGCAG`, the E-score was -0.00622.
For `ACCGACCG`, the E-score was 0.199.
`AGACACTA` has an E-score of -0.0396.
The E-score of `AAGAGGCG` is reported as 0.0705.
`AAGCTCTG` has an E-score of -0.149.
For `CCCGCGAA`, the E-score was 0.271.
`AAGACCCG` has an E-score of 0.0753.
`GCAGACAA` gave an E-score of -0.0473.
`GGATGTGA` gave an E-score of -0.0738.
With `ATTACCTG` the E-score was -0.0805.
`CCGTGCCA` gave an E-score of 0.0853.
`AGGAAGAC` has an E-score of -0.188.
With `ATCCCGTA` the E-score was 0.187.
The E-score of `CGTATCCA` is reported as -0.0944.
For `AAACAGTT`, the E-score was 0.118.
The E-score of `ACGAATCT` is reported as -0.11.

For quick reference, copied from above (series 4):
`ATTACTAG` has an E-score of 0.0529.
For `ATTCTCCA`, the E-score was -0.125.
For `CAGCCTCG`, the E-score was -0.093.
`GGGTTACA` gave an E-score of 0.158.
